Measured values from different studies.
Protocols differ between the studies behind these lines. ± marks the error that the study gave.

| SMILES | target or system | test | test system | conditions | scale | quantity | result |
| --- | --- | --- | --- | --- | --- | --- | --- |
| O=C1NC2(CC2)COc2ncc(F)cc2[C@H]2COCCN2c2ccn3ncc1c3n2 | – | – | Sprague-Dawley rat, female, serum | oral, 2.5 mg/kg/day, 4 weeks daily, end of recovery period | – | alkaline phosphatase activity | 35.3 ± 9.8 U/L |
| CC(C)[C@H](NC(=O)[C@H](CCCNC(=N)N)NC(=O)[C@@H]1CCCN1C(=O)[C@@H](NC(=O)[C@H](C)NC(=O)[C@H](Cc1ccc(O)cc1)NC(=O)[C@H](CCC(N)=O)NC(=O)[C@H](CCCCN)NC(=O)[C@H](CCCNC(=N)N)NC(=O)[C@@H]1CCCN1C(=O)[C@H](CCC(=O)O)NC(=O)[C@@H](NC(=O)[C@H](C)N)[C@@H](C)O)[C@@H](C)O)C(=O)N[C@@H](Cc1ccccc1)C(=O)N[C@@H](Cc1c[nH]c2ccccc12)C(=O)N[C@H](C(=O)N[C@@H](CC(=O)O)C(=O)N[C@@H](C)C(=O)N1CCC[C@H]1C(=O)NCC(=O)NCCOCCOCCOCCOCCOCCOCCOCCOCCOCCOCCOCCOCCC(=O)N[C@@H](CS)C(N)=O)[C@@H](C)O | H1993 | phage binding | – | 10 min, 37 °C | baseline: control phage | selectivity ratio | 32 ± 10 |
| O=C(N[C@H](Cc1ccccc1)C(=O)N[C@H](Cc1ccccc1)C(=O)N[C@@H](Cc1ccc(OP(=O)(O)O)cc1)C(=O)O)OCC1c2ccccc2-c2ccccc21 | MCF7 | mitochondrial membrane potential, flow cytometry | – | 10 µM, 48 h | – | low-TMRM cells | 8% |
| Cc1cc(Oc2nc(N3CC[C@@H](c4ccncc4)C3)ncc2F)[nH]n1 | RD-ES | cell proliferation | – | – | – | IC50 | 100 µM |
| C[C@H]1O[C@@H]2C3=C(O[C@]2(C)[C@@]1(O)C=O)C(=O)c1c(O)cccc1C3=O | HeLa and Vero | MTT | – | – | baseline: CC50 Vero over EC50 HeLa | selectivity index | 0.95 |
| CCOC(=O)C1(Cc2ccccc2)Oc2cc(F)ccc2N(Cc2ccccc2)C1=O (stereo not drawn) | HaCaT | cell growth or viability, CCK-8 | – | 3.13 µM, 72 h | – | inhibition | 0.39% |
| CNC(=S)N/N=C/c1ccc(OCc2ccccc2)cc1 | IMR-32 | – | – | 300 µg/mL, 24 h | higher = more activity | catalase activity (OD450) | 0.059 a.u. |
| CC(C)C12OC1C1OC13C1(C)CCC4=C(COC4=O)C1CC1OC13C2OC(=O)CCC(=O)OC1OC(CO)C(O)C(O)C1O (stereo not drawn) | primary airway epithelial cells | cell viability, XTT | – | 47 h | – | IC50 | 4.12 µM |
| C/C1=C\[C@H](C)C[C@H](C)OC(=O)C[C@H](c2ccc(O)cc2)NC(=O)[C@@H](Cc2c(Br)[nH]c3ccccc23)N(C)C(=O)[C@H](C)NC(=O)[C@@H](C)C1 | HUVEC | cell growth or viability | – | – | – | GI50 | 0.0098 µM |
| CC(C)(C)C(=O)OCOP(=O)(OCOC(=O)C(C)(C)C)C1CCCN(O)C1=O (stereo not drawn) | IGROV-1 | – | – | – | – | TGI | 2.73 µM |
| O=C(O)c1ccc(-c2nc(-c3ccccc3Cl)c3sccn23)cc1 | CD34+ hematopoietic stem cells | – | – | 10 µM, day 0, without TPO | – | CD41-positive cell number | 1100 |
| CSCC[C@H](NC(=O)[C@@H](NC(=O)[C@H](CCC(N)=O)NC(=O)[C@H](CO)NC(=O)[C@@H](N)C(C)C)[C@@H](C)O)C(=O)N[C@@H](CCCNC(=N)N)C(=O)N[C@@H](CCC(N)=O)C(=O)N[C@H](C(=O)N[C@@H](C)C(=O)N[C@H](C(=O)N1CCC[C@H]1C(=O)N[C@@H](CC(C)C)C(=O)N[C@@H](CC(C)C)C(=O)N[C@@H](Cc1c[nH]c2ccccc12)C(=O)N[C@@H](Cc1ccccc1)C(=O)N[C@@H](Cc1c[nH]c2ccccc12)C(=O)N[C@H](C(=O)NCC(=O)N[C@@H](CO)C(=O)N[C@@H](CC(C)C)C(=O)NCCOCCOCCOCCOCCOCCOCCOCCOCCOCCOCCOCCOCCC(=O)N[C@@H](CS)C(N)=O)[C@@H](C)O)C(C)C)[C@@H](C)O | HCC1359 lung squamous carcinoma | cell binding, phage binding, measured: output/input phage | – | 10 min, 37 °C | baseline: control phage | selectivity ratio | 2.1 ± 1.2 |
